{"data": "Experimental data of several laboratories", "U2AF2": "U2AF2 148-342 (Homo sapiens, UniProt P26368)", "B1": "EFR3B 716-787 (Homo sapiens, UniProt Q9Y2G0); chain VPAEEITYETLKKAIVDSVAVEEQERERRRQVVEKFQKAPFEEIAAHCGARASLLQSKLNQIFEITIRPPPS", "B2": "CDC48A 1-463 (Arabidopsis thaliana, UniProt P54609); chain MSTPAESSDSKSKKDFSTAILERKKSPNRLVVDEAINDDNSVVSLHPATMEKLQLFRGDTILIKGKKRKDTVCIALADETCEEPKIRMNKVVRSNLRVRLGDVISVHQCPDVKYGKRVHILPVDDTVEGVTGNLFDAYLKPYFLEAYRPVRKGDLFLVRGGMRSVEFKVIETDPAEYCVVAPDTEIFCEGEPVKREDEERLDDVGYDDVGGVRKQMAQIRELVELPLRHPQLFKSIGVKPPKGILLYGPPGSGKTLIARAVANETGAFFFCINGPEIMSKLAGESESNLRKAFEEAEKNAPSIIFIDEIDSIAPKREKTNGEVERRIVSQLLTLMDGLKSRAHVIVMGATNRPNSIDPALRRFGRFDREIDIGVPDEIGRLEVLRIHTKNMKLAEDVDLERISKDTHGYVGADLAALCTEAALQCIREKMDVIDLEDDSIDAEILNSMAVTNEHFHTALGNSN", "B3": "ATG9 864-997 (Saccharomyces cerevisiae, UniProt Q12142); sequence looked up; chain SFLNNKYSWRKQFQPGQKPELFRIGKHALGPGHNISPAIYSTRNPGKNWDNNNNGDDIKNGTNNATAKNDDNNGNNDHEYVLTESFLDSGAFPNHDVIDHNKMLNSNYNGNGILNKGGVLGLVKEYYKKSDVGR", "B4": "IL18 37-193 C74S/C104S/I107C/C112S/N123C/C163S (Homo sapiens, UniProt Q14116); chain YFGKLESKLSVIRNLNDQVLFIDQGNRPLFEDMTDSDSRDNAPRTIFIISMYKDSQPRGMAVTISVKSEKCSTLSSENKIISFKEMCPPDNIKDTKSDIIFFQRSVPGHDNKMQFESSSYEGYFLASEKERDLFKLILKKEDELGDRSIMFTVQNED", "B5": "PVRIG/Fc Fc fusion (Homo sapiens); chain TPEVWVQVRMEATELSSFTIRCGFLGSGSISLVTVSWGGPNGAGGTTLAVLHPERGIRQWAPARQARWETQSSISLILEGSGASSPCANTTFCCKFASFPEGSWEACGSLPPSSDPGLSAPPTPAPILRADL", "B6": "Doc2b 13-80 (Mus musculus); chain SIQEHMAIDVCPGPIRPIKQISDYFPRFPRGLPPTAAPRAPAPPDAPARSPAASASPRSPSDGARDDD", "B7": "IL33 112-270 (UniProt O95760); sequence looked up; chain SITGISPITEYLASLSTYNDQSITFALEDESYEIYVEDLKKDEKKDKVLLSYYESQHPSNESGDGVDGKMLMVTLSPTKDFWLHANNKEHSVELHKCEKPLPDQAFFVLHNMHSNCVSFECKTDPGVFIGVKDNHLALIKVDSSENLCTENILFKLSET", "B8": "NOTCH1 237-549 (Homo sapiens, UniProt P46531); sequence looked up; chain GDVTHECACLPGFTGQNCEENIDDCPGNNCKNGGACVDGVNTYNCRCPPEWTGQYCTEDVDECQLMPNACQNGGTCHNTHGGYNCVCVNGWTGEDCSENIDDCASAACFHGATCHDRVASFYCECPHGRTGLLCHLNDACISNPCNEGSNCDTNPVNGKAICTCPSGYTGPACSQDVDECSLGANPCEHAGKCINTLGSFECQCLQGYTGPRCEIDVNECVSNPCQNDATCLDQIGEFQCICMPGYEGVHCEVNTDECASSPCLHNGRCLDKINEFQCECPTGFTGHLCQYDVDECASTPCKNGAKCLDGPNT", "note": "Lines come from different studies, so protocols differ. ± gives the spread as reported.", "UniProt P26368, sequence (whole entry, looked up)": "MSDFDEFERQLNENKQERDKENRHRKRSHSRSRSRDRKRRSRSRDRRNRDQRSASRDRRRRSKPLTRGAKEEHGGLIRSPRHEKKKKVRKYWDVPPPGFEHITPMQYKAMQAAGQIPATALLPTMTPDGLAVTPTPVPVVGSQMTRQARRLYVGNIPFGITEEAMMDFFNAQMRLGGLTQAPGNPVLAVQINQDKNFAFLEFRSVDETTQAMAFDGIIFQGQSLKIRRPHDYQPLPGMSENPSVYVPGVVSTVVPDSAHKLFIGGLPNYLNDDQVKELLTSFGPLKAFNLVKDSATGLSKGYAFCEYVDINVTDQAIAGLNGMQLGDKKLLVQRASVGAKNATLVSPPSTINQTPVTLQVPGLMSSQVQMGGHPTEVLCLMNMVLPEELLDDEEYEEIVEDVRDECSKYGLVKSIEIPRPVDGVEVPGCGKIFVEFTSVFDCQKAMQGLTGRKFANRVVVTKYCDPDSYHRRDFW", "UniProt P15873, sequence (whole entry, looked up)": "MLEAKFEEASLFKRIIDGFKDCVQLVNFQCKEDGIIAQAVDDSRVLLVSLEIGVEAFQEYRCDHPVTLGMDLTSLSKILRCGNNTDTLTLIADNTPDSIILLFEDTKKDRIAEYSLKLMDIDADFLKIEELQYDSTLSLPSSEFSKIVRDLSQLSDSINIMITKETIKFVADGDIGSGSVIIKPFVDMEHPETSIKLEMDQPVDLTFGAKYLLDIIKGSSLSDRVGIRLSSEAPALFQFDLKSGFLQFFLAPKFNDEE", "UniProt O14879, sequence (whole entry, looked up)": "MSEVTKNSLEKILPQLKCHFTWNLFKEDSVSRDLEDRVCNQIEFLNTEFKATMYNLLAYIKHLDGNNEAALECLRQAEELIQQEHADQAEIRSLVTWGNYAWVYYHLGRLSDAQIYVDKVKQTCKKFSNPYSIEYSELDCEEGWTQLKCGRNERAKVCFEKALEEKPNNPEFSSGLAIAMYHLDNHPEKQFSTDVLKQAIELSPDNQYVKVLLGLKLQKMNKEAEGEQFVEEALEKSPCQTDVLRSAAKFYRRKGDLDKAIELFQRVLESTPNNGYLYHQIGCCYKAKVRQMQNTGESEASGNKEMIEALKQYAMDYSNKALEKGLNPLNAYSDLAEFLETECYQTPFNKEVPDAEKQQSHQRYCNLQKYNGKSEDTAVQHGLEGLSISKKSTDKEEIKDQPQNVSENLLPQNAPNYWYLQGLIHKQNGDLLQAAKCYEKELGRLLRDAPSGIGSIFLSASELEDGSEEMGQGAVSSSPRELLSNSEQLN", "UniProt P12314, sequence (whole entry, looked up)": "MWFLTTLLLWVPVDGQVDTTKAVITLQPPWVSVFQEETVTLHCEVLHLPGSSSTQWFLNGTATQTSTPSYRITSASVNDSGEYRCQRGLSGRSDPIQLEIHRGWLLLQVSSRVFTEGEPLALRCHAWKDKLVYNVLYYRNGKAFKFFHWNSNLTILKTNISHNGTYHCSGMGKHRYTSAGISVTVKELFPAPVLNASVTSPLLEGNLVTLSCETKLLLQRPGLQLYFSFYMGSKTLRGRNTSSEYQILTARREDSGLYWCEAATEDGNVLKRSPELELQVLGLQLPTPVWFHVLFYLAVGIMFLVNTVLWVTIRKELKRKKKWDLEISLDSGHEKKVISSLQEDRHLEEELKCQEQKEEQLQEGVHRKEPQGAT", "UniProt Q94JZ8, sequence (whole entry, looked up)": "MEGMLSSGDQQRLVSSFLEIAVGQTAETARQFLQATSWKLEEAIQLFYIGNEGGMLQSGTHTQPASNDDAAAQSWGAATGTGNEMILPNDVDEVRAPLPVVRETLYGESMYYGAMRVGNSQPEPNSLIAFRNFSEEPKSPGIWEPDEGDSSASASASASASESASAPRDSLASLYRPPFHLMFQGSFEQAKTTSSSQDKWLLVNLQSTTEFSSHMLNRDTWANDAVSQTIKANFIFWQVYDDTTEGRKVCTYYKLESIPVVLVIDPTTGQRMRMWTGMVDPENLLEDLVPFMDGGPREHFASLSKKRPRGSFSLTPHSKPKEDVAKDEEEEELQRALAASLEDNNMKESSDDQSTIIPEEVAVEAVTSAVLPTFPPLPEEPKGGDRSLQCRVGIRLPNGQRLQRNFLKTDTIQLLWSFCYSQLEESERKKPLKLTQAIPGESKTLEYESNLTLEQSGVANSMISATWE", "UniProt P35968, sequence (whole entry, looked up)": "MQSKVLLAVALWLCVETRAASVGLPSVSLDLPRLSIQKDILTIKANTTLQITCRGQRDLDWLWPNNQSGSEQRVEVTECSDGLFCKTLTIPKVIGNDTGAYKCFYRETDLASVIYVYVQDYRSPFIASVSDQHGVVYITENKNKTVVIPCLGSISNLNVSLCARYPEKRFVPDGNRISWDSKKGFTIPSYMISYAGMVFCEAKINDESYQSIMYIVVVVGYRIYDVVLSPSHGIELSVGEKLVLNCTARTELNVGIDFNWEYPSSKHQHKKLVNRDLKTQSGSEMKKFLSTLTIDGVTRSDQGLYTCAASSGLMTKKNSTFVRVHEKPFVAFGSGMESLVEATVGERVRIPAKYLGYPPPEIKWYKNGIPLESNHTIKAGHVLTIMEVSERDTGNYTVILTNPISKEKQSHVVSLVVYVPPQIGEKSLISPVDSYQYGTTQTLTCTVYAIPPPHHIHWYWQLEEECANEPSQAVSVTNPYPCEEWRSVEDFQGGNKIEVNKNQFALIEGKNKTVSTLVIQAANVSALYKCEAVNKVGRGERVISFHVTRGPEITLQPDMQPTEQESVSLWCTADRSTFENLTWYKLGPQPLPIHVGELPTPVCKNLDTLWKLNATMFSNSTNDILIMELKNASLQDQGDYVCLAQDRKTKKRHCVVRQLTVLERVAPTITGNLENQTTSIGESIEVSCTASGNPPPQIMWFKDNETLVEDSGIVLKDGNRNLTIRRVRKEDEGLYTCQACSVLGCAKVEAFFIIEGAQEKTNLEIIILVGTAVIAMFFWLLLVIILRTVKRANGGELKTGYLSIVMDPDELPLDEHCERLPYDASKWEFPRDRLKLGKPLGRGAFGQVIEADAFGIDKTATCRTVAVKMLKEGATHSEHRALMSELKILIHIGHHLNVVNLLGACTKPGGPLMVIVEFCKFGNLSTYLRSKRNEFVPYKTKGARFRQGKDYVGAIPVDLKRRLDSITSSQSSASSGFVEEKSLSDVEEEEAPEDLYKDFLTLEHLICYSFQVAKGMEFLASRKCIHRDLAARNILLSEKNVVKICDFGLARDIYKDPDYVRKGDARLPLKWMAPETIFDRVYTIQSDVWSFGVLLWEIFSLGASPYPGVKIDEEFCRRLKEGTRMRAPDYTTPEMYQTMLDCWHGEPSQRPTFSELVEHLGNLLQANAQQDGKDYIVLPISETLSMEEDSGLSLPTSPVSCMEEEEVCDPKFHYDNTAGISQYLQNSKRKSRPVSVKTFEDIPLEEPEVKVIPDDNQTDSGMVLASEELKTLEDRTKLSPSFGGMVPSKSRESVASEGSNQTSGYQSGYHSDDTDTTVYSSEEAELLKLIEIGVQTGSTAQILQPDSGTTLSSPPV", "UniProt Q92692, sequence (whole entry, looked up)": "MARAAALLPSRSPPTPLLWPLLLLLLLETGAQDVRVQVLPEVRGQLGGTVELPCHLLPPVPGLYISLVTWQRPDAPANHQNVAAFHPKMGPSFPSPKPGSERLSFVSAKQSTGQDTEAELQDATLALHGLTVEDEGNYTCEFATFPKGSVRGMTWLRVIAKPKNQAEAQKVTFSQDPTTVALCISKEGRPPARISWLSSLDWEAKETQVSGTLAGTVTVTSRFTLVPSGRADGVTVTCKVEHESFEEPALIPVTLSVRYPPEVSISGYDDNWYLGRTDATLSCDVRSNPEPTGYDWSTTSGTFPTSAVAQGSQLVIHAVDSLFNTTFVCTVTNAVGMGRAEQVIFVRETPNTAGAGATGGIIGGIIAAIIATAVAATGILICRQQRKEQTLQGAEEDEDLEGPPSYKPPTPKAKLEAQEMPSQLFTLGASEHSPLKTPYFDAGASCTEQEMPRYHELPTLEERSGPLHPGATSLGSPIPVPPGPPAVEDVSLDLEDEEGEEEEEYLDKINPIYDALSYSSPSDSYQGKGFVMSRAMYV", "UniProt Q06671, sequence (whole entry, looked up)": "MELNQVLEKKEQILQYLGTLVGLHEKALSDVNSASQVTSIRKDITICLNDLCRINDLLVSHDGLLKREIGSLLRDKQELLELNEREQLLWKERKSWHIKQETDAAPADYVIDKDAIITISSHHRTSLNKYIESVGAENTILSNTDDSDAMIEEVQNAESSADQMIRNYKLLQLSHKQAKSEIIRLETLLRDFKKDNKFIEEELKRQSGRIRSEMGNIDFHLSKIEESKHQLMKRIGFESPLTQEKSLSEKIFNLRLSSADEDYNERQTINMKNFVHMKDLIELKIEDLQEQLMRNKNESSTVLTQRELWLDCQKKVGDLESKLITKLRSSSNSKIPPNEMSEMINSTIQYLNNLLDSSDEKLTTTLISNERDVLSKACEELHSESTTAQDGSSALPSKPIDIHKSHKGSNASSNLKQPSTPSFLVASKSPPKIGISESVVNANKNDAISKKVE", "UniProt Q9NWS0, sequence (whole entry, looked up)": "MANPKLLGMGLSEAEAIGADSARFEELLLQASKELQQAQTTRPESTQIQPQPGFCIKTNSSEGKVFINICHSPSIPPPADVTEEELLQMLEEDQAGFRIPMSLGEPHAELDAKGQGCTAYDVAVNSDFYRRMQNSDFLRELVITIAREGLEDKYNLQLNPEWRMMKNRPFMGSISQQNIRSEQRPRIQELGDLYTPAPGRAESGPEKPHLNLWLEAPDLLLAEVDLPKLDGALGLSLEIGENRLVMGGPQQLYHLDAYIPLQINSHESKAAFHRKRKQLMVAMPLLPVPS"}
{"Molecule": "UMOD EGF-like domains", "target or system": "EGFR 25-645 (Homo sapiens, UniProt P00533)", "assay": "MST", "measurement": "Kd", "value": "628 ± 173 nM"}
{"Molecule": "B1 (EFR3B 716-787)", "target or system": "TTC7B/FAM126B FAM126B 1-308", "assay": "BLI", "measurement": "Kd", "value": "0.345 nM"}
{"Molecule": "GCAAUUUUC (ssRNA)", "target or system": "U2AF2", "assay": "sequencing of bound RNA", "test system": "RNA", "conditions": "motif only", "measurement": "Kd", "value": "630 nM"}
{"Molecule": "EAADQEEDQDDFVYPGAD (upa1 237-254 (Ustilago maydis, UniProt A0A0D1E015); sequence looked up)", "target or system": "rrm4 679-792 (Ustilago maydis, UniProt A0A0D1DWZ5)", "assay": "ITC", "test system": "peptide", "measurement": "Kd", "value": "15700 nM"}
{"Molecule": "B2 (CDC48A 1-463)", "target or system": "PUX7 (Arabidopsis thaliana, UniProt Q94JZ8)", "assay": "ITC", "conditions": "10 °C", "measurement": "Kd", "value": "5100 ± 300 nM"}
{"Molecule": "ENAH EVH1 domain (Homo sapiens)", "target or system": "DBN1 peptide (Homo sapiens)", "assay": "BLI", "measurement": "Kd", "value": "57300 nM"}
{"Molecule": "KDR (Homo sapiens, UniProt P35968)", "target or system": "ramucirumab IgG, PBS-stressed 28 d, Fc heavy chain Asn deamidation", "assay": "SPR", "measurement": "Kd", "value": "0.32 nM"}
{"Molecule": "DTTPTVAGQFEDADVDH (CLNS1A residues 221-237; N-terminal acetyl)", "target or system": "PRMT5/WDR77 full length, hetero-octamer (Homo sapiens)", "assay": "SPR", "test system": "peptide", "measurement": "Kd", "value": "2500 nM"}
{"Molecule": "GGUAAUUAC (ssRNA)", "target or system": "U2AF2", "assay": "sequencing of bound RNA", "test system": "RNA", "conditions": "motif only", "measurement": "Kd", "value": "550 nM"}
{"Molecule": "B3 (ATG9 864-997)", "target or system": "Atg23 full-length, dimer (yeast, UniProt Q06671)", "assay": "BLI", "measurement": "Kd", "value": "460 nM"}
{"Molecule": "YAGSDSDLDSDDEFVPY (TELO2 483-497 (Homo sapiens); pS487)", "target or system": "PIH1D1 1-180 (Homo sapiens, UniProt Q9NWS0)", "assay": "ITC", "test system": "peptide", "measurement": "Kd", "value": "15000 ± 1500 nM"}
{"Molecule": "IFIT1 (Homo sapiens, UniProt P09914)", "target or system": "IFIT3 (UniProt O14879)", "assay": "MST", "measurement": "Kd", "value": "43.3 ± 9.6 nM"}
{"Molecule": "ARTKQTARKSTGGKAPRKQ (H3C1 residues 1-19)", "target or system": "SUZ12/RBBP4 SUZ12 76-545 (Homo sapiens)", "assay": "ITC", "test system": "peptide", "measurement": "Kd", "value": "70100 nM"}
{"Molecule": "B4", "target or system": "IL18BP (Homo sapiens, UniProt O95998)", "assay": "SPR", "measurement": "Kd", "value": "0.0072 nM"}
{"Molecule": "Trastuzumab IgG1 (Homo sapiens)", "target or system": "FCGR1A (Homo sapiens, UniProt P12314)", "assay": "SPR", "measurement": "Kd", "value": "2.3 nM"}
{"Molecule": "SDLACRLLGQSMDESGLPQLTSYDCEVNAPIQGSRNLLQGEELLRALDQVN (HIF1A 776-826 (Homo sapiens, UniProt Q16665); sequence looked up)", "target or system": "Crebbp 340-439 (Mus musculus, UniProt P45481)", "assay": "fluorescence polarisation", "measurement": "Kd", "value": "14 nM"}
{"Molecule": "human hornerin", "target or system": "CYB5R4 knockout human cells", "assay": "PP4 interaction, 3xFLAG-PP4C IP-MS", "conditions": "concentration not given", "scale": "baseline: CYB5R4 KO over parental", "measurement": "log2 fold change", "value": 1.67}
{"Molecule": "Notch ankyrin domain R107A (Drosophila)", "target or system": "dx (Drosophila melanogaster, UniProt Q23985)", "assay": "AUC", "measurement": "Kd", "value": "12900 nM"}
{"Molecule": "B5 (PVRIG/Fc Fc fusion)", "target or system": "PVRL2 ECD 32-350 (Homo sapiens, UniProt Q92692)", "assay": "BLI", "test system": "Fc fusion", "measurement": "Kd", "value": "216 nM"}
{"Molecule": "B6 (Doc2b 13-80)", "target or system": "Unc13a MUN domain del1453-1531 (Rattus norvegicus)", "assay": "ITC", "measurement": "Kd", "value": "160 ± 20 nM"}
{"Molecule": "Cacna1c distal C-terminal regulatory (Rattus norvegicus)", "target or system": "CACNA1C IQ motif 1644-1668 F1658E, fluorescein label (UniProt P15381)", "assay": "fluorescence polarisation", "measurement": "Kd", "value": "88000 ± 10000 nM"}
{"Molecule": "NGIAAMLQRHSRKRFQL (PIF1 815-831 (Saccharomyces cerevisiae, UniProt P07271); sequence looked up)", "target or system": "POL30 1-258 (Saccharomyces cerevisiae, UniProt P15873)", "assay": "ITC", "test system": "peptide", "measurement": "Kd", "value": "19000 nM"}
{"Molecule": "B7 (IL33 112-270)", "target or system": "IL1RL1 19-328 (Homo sapiens, UniProt Q01638-2)", "assay": "SPR", "measurement": "Kd", "value": "0.104 nM"}
{"Molecule": "GRIN2A fragment (sequence not shown)", "target or system": "SNX27 fragment (Rattus norvegicus)", "assay": "ITC", "measurement": "Kd", "value": "46000 nM"}
{"Molecule": "clathrin heavy chain 2, human", "target or system": "CYB5R4 knockout human cells", "assay": "PP4 interaction, 3xFLAG-PP4C IP-MS", "conditions": "concentration not given", "scale": "baseline: CYB5R4 KO over parental", "measurement": "log2 fold change", "value": -1.11}
{"Molecule": "B8 (NOTCH1 237-549)", "target or system": "DLL4 27-400 G28S/F107L/I143F/H194Y/L206P/N257P/T271L/F280Y/S301R/Q305P (Homo sapiens, UniProt Q9NR61)", "assay": "SPR", "measurement": "Kd", "value": "24 nM"}
{"Molecule": "KLLMIIHDRREFAKFEKEKMNAKWDTQENPIYKSPINNFKNPNYGRKAGL (ITGB1 752-801 (Homo sapiens, UniProt P05556-5); sequence looked up)", "target or system": "Tln2 312-408 P355S (Mus musculus, UniProt Q71LX4)", "assay": "NMR titration", "measurement": "Kd", "value": "51000 nM"}
{"note": "A few entries again:"}
{"Molecule": "human hornerin", "target or system": "CYB5R4 knockout human cells", "assay": "PP4 interaction, 3xFLAG-PP4C IP-MS", "conditions": "concentration not given", "scale": "baseline: CYB5R4 KO over parental", "measurement": "log2 fold change", "value": 1.67}
{"Molecule": "Notch ankyrin domain R107A (Drosophila)", "target or system": "dx (Drosophila melanogaster, UniProt Q23985)", "assay": "AUC", "measurement": "Kd", "value": "12900 nM"}
{"Molecule": "B5 (PVRIG/Fc Fc fusion)", "target or system": "PVRL2 ECD 32-350 (Homo sapiens, UniProt Q92692)", "assay": "BLI", "test system": "Fc fusion", "measurement": "Kd", "value": "216 nM"}
{"Molecule": "B6 (Doc2b 13-80)", "target or system": "Unc13a MUN domain del1453-1531 (Rattus norvegicus)", "assay": "ITC", "measurement": "Kd", "value": "160 ± 20 nM"}
